Assay results collected from several papers.
Compare with care: the assays were run in different laboratories. ± gives the spread as reported.
DNA gyrase subunit A with GyrB: DNA gyrase subunit A, with GyrB (Mycobacterium tuberculosis, UniProt P9WG47)

CCN(CC)C(=O)c1ccc(C(c2cccc(O)c2)N2CC(C)N(Cc3ccccc3)CC2C)cc1 (stereo not drawn)  EC50 (Delta-type opioid receptor (OPRD1, Homo sapiens, UniProt P41143, V281A); agonist): 0.25 ± 0.15 nM
CN(C)[C@H]1C[C@@]23CC[C@@]4(O2)C(=CC[C@]2(C)[C@@H](c5ccc6ccncc6c5)CC[C@H]24)C=C3[C@@H](O)[C@@H]1O  inhibition (Serine/threonine-protein kinase PLK1 (PLK1, Homo sapiens, UniProt P53350); ATP probe labelling, inhibitor, KiNativ profiling; 0.1 µM): -8.3%
CCCCCn1cc(C(=O)c2cccc3c2CC(C)(C)C3)c2ccccc21  EC50 (Cannabinoid receptor 1 (CNR1, Homo sapiens, UniProt P21554, I267L/L193I/L359V); cAMP inhibition, agonist, CAMYEL BRET biosensor; together with: forskolin 10 µM): 2.04 nM
O=C1NC2(CC2)COc2ncc(F)cc2[C@H]2COCCN2c2ccn3ncc1c3n2  organ-to-brain weight ratio (Sprague-Dawley rat, female, thymus; oral, 10 mg/kg/day, 4 weeks dosing, end of recovery): 20.6 ± 5.24%
COc1ccccc1-c1n[nH]c2nc(NC3CCN(C(=O)Cc4ccc(F)cc4F)CC3)ncc12  relative abundance (bead binding, competition bead pull-down, measured: LINJ.35.5450; Leishmania donovani axenic amastigote extract; 10 µM; baseline: vehicle): 1.06
COc1ccccc1C(C[N+](=O)[O-])c1c(-c2ccccc2)[nH]c2ccccc12 (stereo not drawn)  EC50 (Cannabinoid receptor 1 (CNR1, Homo sapiens, UniProt P21554, Y397F); G protein activation, agonist, BRET): 270 nM
CC(C)(C)C(=O)OCOP(=O)(OCOC(=O)C(C)(C)C)C1CCCN(O)C1=O (stereo not drawn)  log GI50 (ACHN): -6.47 log M
CC[C@H](C)[C@H](NC(=O)[C@H](CO)NC(=O)[C@H](CC(N)=O)NC(=O)[C@H](CC(C)C)NC(=O)[C@H](Cc1ccc(O)cc1)NC(=O)[C@H](CCCCN)NC(=O)[C@H](CCCCN)NC(=O)[C@@H](NC(=O)[C@H](C)NC(=O)[C@H](CCSC)NC(=O)[C@H](CCC(N)=O)NC(=O)[C@H](CCCCN)NC(=O)[C@H](CCCN=C(N)N)NC(=O)[C@H](CC(C)C)NC(=O)[C@H](CCCN=C(N)N)NC(=O)[C@@H](NC(=O)[C@H](Cc1ccc(O)cc1)NC(=O)[C@H](CC(N)=O)NC(=O)[C@H](CC(=O)O)NC(=O)[C@@H](NC(=O)[C@H](Cc1ccccc1)NC(=O)[C@@H](NC(=O)[C@H](C)NC(=O)[C@H](CC(=O)O)NC(=O)[C@H](CO)NC(=O)[C@@H](N)Cc1c[nH]cn1)C(C)C)[C@@H](C)O)[C@@H](C)O)C(C)C)C(=O)N[C@@H](CC(C)C)C(=O)N[C@@H](CC(N)=O)C(N)=O  EC50 (Pituitary adenylate cyclase-activating polypeptide type I receptor (ADCYAP1R1, Homo sapiens, UniProt P41586, del89-109); receptor internalisation, agonist; COS-7; 37 °C, AUC over 30 min): 151 nM
COc1ccc2ncc(F)c(C[C@H](O)[C@H]3OC[C@H](NCc4ccc5c(n4)NC(=O)CO5)CO3)c2c1  EC50 (DNA gyrase subunit A with GyrB; single-stranded DNA cleavage; 10 min, 37 °C, together with: gyrase 100 nM): 13800 nM
O=[N+]([O-])CC(c1ccco1)c1c(-c2ccccc2)[nH]c2ccccc12 (stereo not drawn)  EC50 (Cannabinoid receptor 1 (CNR1, Homo sapiens, UniProt P21554, I245F); G protein activation, agonist, BRET): 210 nM
COc1ccc2nccc(CC[C@H]3OC[C@H](NC(=O)c4ccc(Cl)cc4)CO3)c2c1  EC50 (DNA gyrase subunit A with GyrB; single-stranded DNA cleavage; 10 min, 37 °C, together with: gyrase 100 nM): 17100 nM
CCCCCn1cc(C(=O)c2ccc3c(c2)CC(C)(C)C3)c2ccccc21  EC50 (Cannabinoid receptor 2 (CNR2, Homo sapiens, UniProt P34972, L182I); cAMP, agonist, BRET): 52.5 nM

Excerpt of the above:
O=[N+]([O-])CC(c1ccco1)c1c(-c2ccccc2)[nH]c2ccccc12 (stereo not drawn)  EC50 (Cannabinoid receptor 1 (CNR1, Homo sapiens, UniProt P21554, I245F); G protein activation, agonist, BRET): 210 nM
